Measurements from different studies.
Parts stem from different laboratories: compare values within a part only.

Sample 1 — technique: RNA Bind-n-Seq; form: RNA; matrix: in vitro; concentration: 1 µM; setting: whole 134-nt RNA, ends assumed; added: 150 mM KCl; relative to: input library; reading: higher = stronger binding; endpoint: log2 enrichment
Target: Ras GTPase-activating protein-binding protein 1, RRM domain (G3BP1, Homo sapiens, UniProt Q13283)
Sequence of UniProt Q13283 (whole entry, looked up): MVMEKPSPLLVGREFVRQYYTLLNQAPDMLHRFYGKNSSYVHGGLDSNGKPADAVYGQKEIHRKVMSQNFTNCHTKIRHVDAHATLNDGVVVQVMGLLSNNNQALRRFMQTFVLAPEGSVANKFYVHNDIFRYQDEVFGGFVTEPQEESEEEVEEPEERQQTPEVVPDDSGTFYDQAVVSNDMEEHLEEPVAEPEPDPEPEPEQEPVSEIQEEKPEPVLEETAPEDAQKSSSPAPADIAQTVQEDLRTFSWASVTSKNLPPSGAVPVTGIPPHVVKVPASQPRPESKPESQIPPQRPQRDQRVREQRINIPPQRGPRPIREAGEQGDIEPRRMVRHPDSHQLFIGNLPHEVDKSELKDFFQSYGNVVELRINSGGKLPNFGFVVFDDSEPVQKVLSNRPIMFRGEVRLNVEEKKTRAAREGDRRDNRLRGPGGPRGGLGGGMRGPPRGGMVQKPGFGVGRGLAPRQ
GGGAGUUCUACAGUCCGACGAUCCAAGUCCUGUGCUACACAUCGUAUGUACCGAAUCGGGGUUUGGGUUUGGGUUUGGAAAGUAUUAUGUUACGCCGUUCGGAUCUGCACUUCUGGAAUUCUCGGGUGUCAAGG: -0.485
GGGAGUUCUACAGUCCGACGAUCACCAUAAAGGUGGGCAUCUUUGGGAAGUGGGGCAAGGGGGGGAUAGGGAGGGGGGUAACACUUUGGGAACAGGUGGUCCCAGGUCGUUUCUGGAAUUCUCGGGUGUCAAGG: -0.346
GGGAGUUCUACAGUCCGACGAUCAGUCCUGUGCUACACAUCGUAUGUACCGAAUCGGGAGGGUUUUUGGGAAAAAAAGGGAAAGUAUUAUGUUACGCCGUUCGGAUCUGCACUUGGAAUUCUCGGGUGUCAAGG: 0.42
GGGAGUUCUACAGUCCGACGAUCAAGUCCUGUGCUACACAUCGUAUGUACCGAAUCGGGGAAAAGGGGAAAAGGAAAAGGAAAGUAUUAUGUUACGCCGUUCGGAUCUGCACUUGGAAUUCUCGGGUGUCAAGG: -0.15
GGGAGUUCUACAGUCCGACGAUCUGCCUACGUAAUUUUUUAUCUUGAAAUAUUCAAAAUUAGGAGCCAGAUGACCAAGAUGCUCCAGAUGAACAUGAGUCGCCUCCACCUGAAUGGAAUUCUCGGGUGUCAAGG: -0.588
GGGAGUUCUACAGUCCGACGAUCUCCUGUGCUACACAUCGUAUGUACCGAAUCGGGGUUUUUGGGGAGGGGUUUUUUUGGGGAAAGUAUUAUGUUACGCCGUUCGGAUCUGCAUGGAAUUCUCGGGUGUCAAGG: 0.776
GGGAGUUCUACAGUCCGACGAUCAGUCCUGUGCUACACAUCGUAUGUACCGAAUCGGGUUUUUGGGUUUUUUUGGGAGGGAAAGUAUUAUGUUACGCCGUUCGGAUCUGCACUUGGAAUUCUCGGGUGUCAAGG: 0.306
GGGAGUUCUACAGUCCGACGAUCUUAAAACAUGGCAACUUGUAAUUGUUUUCUUUCUUAGGAACAUCAUUCAUGGCAGUGAUUCAGUAAAAAGUGCUGAAAAAGAAAUCAGCCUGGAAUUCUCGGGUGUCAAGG: -0.0864
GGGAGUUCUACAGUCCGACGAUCCACAGACAACACGCACCCACACAGACACAGAGGGAAGGGGUUGGGAUGGGGACAGGGUGAAAAGCAGGGCGGGGUAGGACCCCAGCCCCUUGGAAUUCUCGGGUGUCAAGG: -0.151
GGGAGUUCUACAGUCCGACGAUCUCCUCAAGUCCUGUGCUACACAUCGUAUGUACCGAAUCGGGCGGCGGCGGGAAAGUAUUAUGUUACGCCGUUCGGAUCUGCACUUCCAGCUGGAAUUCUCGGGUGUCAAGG: -0.17
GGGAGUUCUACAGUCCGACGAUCUGGCCCUGGUGGCAUGCUGGGAGGAAGAGGUGGCCUCAUGGAUCGUGGUGGUCCCGGUGGAAUGUUCAGAGGUGGCCGUGGUGGAGACAGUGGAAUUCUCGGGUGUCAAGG: 1.11
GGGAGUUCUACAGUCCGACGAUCCACAGACAACACGCAAAAACACAGACACAGAGGGAAGGGGUUGGGAUGGGGACAGGGUGCACAGCAGGGCGGGGUAGGACCCCAGCCCCUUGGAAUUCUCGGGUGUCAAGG: 0.00789
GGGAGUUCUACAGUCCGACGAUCAAGUCCUGUGCUACACAUCGUAUGUACCGAAUCGGAAAAAGGUUUUUGGUUUUUGGAAAGUAUUAUGUUACGCCGUUCGGAUCUGCACUUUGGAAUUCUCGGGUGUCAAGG: -0.396
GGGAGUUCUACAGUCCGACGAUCAAGUCCUGUGCUACACAUCGUAUGUACCGAAUCGGAAAAAGGAAAGGAAAAAAAGGAAAGUAUUAUGUUACGCCGUUCGGAUCUGCACUUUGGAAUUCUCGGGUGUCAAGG: 0.101

Sample 2 — technique: protein binding microarray; form: double-stranded DNA, one strand shown; matrix: in vitro; concentration: not given; relative to: not given; reading: higher = stronger binding; endpoint: E-score
Target: Histone acetyltransferase KAT6A, both winged helices, GST fusion (KAT6A, Homo sapiens, UniProt Q92794, residues 1-181)
Setting: 8-mer, flanks averaged, mean of 2 arrays, mostly near background
Target sequence (chain): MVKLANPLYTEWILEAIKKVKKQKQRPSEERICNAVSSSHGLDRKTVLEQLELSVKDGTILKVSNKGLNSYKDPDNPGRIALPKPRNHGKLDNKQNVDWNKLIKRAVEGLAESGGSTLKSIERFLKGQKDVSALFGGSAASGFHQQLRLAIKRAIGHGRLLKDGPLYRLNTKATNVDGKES
AAGAGCAC: -0.141
GGCCGTGA: 0.259
AGGACCTG: -0.129
CCACCCAA: -0.193
CGAGTTAA: -0.0569
AAGGGTGT: -0.108
ATACTGAG: -0.0429
ATACGCTG: 0.106
AAAATCAG: -0.109
CCGTGAGC: 0.278
GACTTTTA: -0.0376
GTGTGTGA: -0.152
GACTTACA: -0.0946
GCCTGTTA: -0.214
CTGACGGA: 0.11
AAAAGAAC: -0.00751
ATTCCAGG: -0.207
AGTAACCA: -0.124
CAGTCGCA: 0.117
TCAGATCA: -0.163
TCCGGAGA: 0.127
ATCTCGCG: 0.17

Sample 3 — technique: RNA Bind-n-Seq; form: RNA; matrix: in vitro; concentration: 365 nM; relative to: no-protein control; reading: higher = stronger binding; endpoint: RBNS enrichment (R)
Target: RNA binding protein fox-1 homolog 2, RRM domain, GST-SBP tag (RBFOX2, Homo sapiens, UniProt O43251-10, residues 100-194)
Setting: natural RNA segment, single round, ends assumed
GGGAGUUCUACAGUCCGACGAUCCCAGGGGAGGUUUAGGGGUCCUAUCUCCUGGGGGAAGGGGAGAUCUAAGAUGUCCCAGGUCCUGGGAAGUUUACUCAAUAAAGCUGGCUUUCCCCUGCCCUCCAUGCUGGUGGAAUUCUCGGGUGCCAA: 0.501
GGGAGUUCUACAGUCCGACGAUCUGGAACUUGGUCUCCCAACACUUAUUGUGAUUGCAAAGUGUUUACCAGAUAUUUGAUGAGGUGCUAUGUUUGUGAAAAACAUAUCAUGUAAUUCAAAAACACUAUUGAUAUGGAAUUCUCGGGUGCCAA: 0.66
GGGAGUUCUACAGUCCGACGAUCAGGUUUGAUGUGGAAUCAUGGCUGCAGUGAUAUGUUUUUAUCAGCGCUUGGUGGUUUUAAAGUGCAUGCUAUUUUAUUAUCUUCUUCUGAAUAAAAUGUAUUUACUCAAAUGGAAUUCUCGGGUGCCAA: 12.5
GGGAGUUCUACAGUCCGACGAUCAGAGGUUUAUGCUGAGGGGGGGUGACUUUUUAGAAACGUAGCUUCUUGGCGUUUUGCAACCCAUGCUGGCCUCCCUCCUGCAGAUGGCAUAGGAGUCCGUCUGUCUUUGGUGGAAUUCUCGGGUGCCAA: 0.399
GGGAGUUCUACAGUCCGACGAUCAAGAAUUCAACUGGCUGAACCUUCAUACCCUGACUGAGAACUAGUGUCCAAUAAAAGGUGACUGGUUACAUACUGCUUGCCUGGUGUAGUCAUUGUUCUGACUUGUCCACUGGAAUUCUCGGGUGCCAA: 0.406
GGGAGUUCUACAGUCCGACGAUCAUGUGGAUGACUUACAAGAAACACAAAAGAAAGGUACUUAUAGAGUCUGGUUCUAAUAAUUGGUACCCUCUUUCUCGGUUCCAUAUUUUUAACAACCCUUUAACAAACUAUGGAAUUCUCGGGUGCCAA: 0.465
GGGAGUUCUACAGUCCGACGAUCAGCGGGGGGCCUCUUCCUUCCUGGUGCUGGUCAGGGGGCCUGGAAACAAACUUUCUGAGGCUGGGUCAGCUUGCCUUAUAGUACUCCUCUCCUGCUAUGCCAACCUCAGGUGGAAUUCUCGGGUGCCAA: 0.436
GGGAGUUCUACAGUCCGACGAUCUUUGCCCCACCUUGUCUUGUUGAUGAACAAUAUUAUGAAGCCUGCAGUCAUUCUCUCUGUACAUCAGAGCUUAGUUCGAAUGGAAUCAUGAAAAUCUCUGAUUCUGACCUUGGAAUUCUCGGGUGCCAA: 11.6
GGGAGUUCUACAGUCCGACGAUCCUGCCUUGAGAGGCCGCGGACAAAGAGCUUCUAAAACCAAGAGUCUCAGCGCUUGAGGAGUGCUGCCUGAUUCUUCUGCAAGCCCCACUGGGAGCCACCACCUCCGGCUCUGGAAUUCUCGGGUGCCAA: 0.626
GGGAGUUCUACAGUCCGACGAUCCUCCUGAUGUAAACAUUUCCCCCACUUUCCAAAUAAUGGUAAAGAAAACAGUGGCAAGGGCUGUUCUGUUUUCUGGUACCUGAGUGAAACUCAGAAGAAAAGCAGGCUUAUGGAAUUCUCGGGUGCCAA: 0.472
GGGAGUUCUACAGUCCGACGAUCAUGAUAAGUAAAGGCCCCUAGUCCUGCACAGGAGGCUGAGGCAGGAGAAUUGUUUAGUCCUGGAAUAGAUAGUAAAAGCCUGUCUCAGAAUACACAAGCAGAGAAGGAUCUGGAAUUCUCGGGUGCCAA: 0.39
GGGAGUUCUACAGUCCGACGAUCGAGCGAGUACUGUUUUGUGGUGACAUCUUAGGUGUUUCCUUUCUCCCAGGCUGCUGCUCUGUGGUAUUUCCAGUCUCAGACUUGUGUUGUGGAGUCAUGGUGUUAGUGUUUGGAAUUCUCGGGUGCCAA: 0.623

Sample 4 — technique: RNA Bind-n-Seq; form: RNA; matrix: in vitro; concentration: not given; relative to: input RNA pool; reading: higher = stronger binding; endpoint: bound/input enrichment
Target: RING finger protein unkempt homolog, zinc fingers 1-6, GST-SBP tag (UNK, Homo sapiens, UniProt Q9C0B0, residues 30-357)
Sequence of UniProt Q9C0B0 (30-357, looked up): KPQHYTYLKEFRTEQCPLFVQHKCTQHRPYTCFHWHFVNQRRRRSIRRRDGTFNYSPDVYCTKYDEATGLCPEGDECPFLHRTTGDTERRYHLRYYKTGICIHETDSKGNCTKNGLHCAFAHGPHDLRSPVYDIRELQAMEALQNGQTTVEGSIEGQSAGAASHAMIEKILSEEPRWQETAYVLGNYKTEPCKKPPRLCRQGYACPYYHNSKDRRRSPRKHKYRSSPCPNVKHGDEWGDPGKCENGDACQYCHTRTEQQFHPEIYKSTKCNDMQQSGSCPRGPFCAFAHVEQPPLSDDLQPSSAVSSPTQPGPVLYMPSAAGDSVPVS
Setting: RNA with constant flanks, human-mouse chimeric sites, ends assumed
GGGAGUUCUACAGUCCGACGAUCAUAGAUGAAAUUGAUGUGGACCAGGAAGGAAUUGCAGAAAUGAUCCUGGAUGAAAAUGCUAUUGCUCAGGUCCCACGCCCUGGCACAUCUUUGAAGCUCCCUGGCACUAAUCAGACAGGACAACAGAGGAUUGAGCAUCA: 0.258 ratio
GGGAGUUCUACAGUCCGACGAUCUCAGUCUUUUUGUACAGCUUUGUAAAUUCUUAACAUUUUUAUAUUGCACAUUUUAUGUUGUUUGGGUAAUUUGGUUCAUUAAGUACAUAGCUAAGGUAAUGAACAUCUUUUUCAGUAAUUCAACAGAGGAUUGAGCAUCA: 1.05 ratio
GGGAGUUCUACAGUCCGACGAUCCAGCCUCAGAGCCCAGACUUCCUGGAUAUCACCAACCCUAAAGCGGUAUUAGAAAAUGCAUUGAGAAACUUCGCCUGUCUGACCACCGGAGAUGUGAUUGCUAUCAACUACAAUGAGAAGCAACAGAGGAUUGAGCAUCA: 0.474 ratio
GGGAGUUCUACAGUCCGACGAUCUUAAACACCAAGCUGAUGGACUCUGAUGGCCUCCAUCUCUCAGGCACGUGUGCCUUCUCUUAGUCCCUUCUGGGUUGAUGUUAUGAAUCUCAGUACUGUGGUUUGAAAGCACCAGCUUUGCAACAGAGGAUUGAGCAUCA: 0.423 ratio
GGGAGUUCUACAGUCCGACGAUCAAAUCGUGUGUGUCAAAUAUUGAAAGUGCUUUAUCUACACUCCAAUAUGUAAGCAGUAUAGUAGUUUCUUUAGAGAAUAGGUCAGCCAUUGUAAAGUACAAUGCAAGCUUAGUCACUCCACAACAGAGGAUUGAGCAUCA: 21.9 ratio
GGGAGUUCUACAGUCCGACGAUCGCCACCAGAUCCCAGAAACAUGACCCUUGCUGCCUACAAAGAGAAGAUGAAGGAGCUCCCGCUGGUGUCUCUGUUCUGCUCCUGCUUCUUGUCUGAUCCCCUGAAUAAGUCGUCCUACAACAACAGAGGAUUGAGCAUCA: 0.348 ratio
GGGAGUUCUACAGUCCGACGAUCUGUGCAUAUGAUGCUUGAGAUGGUUUUUGCAAAAGCAGACAUCGCUGCAAGGUAAUCACAAUAGAUACAAGCGGUAUUUUAAACCUUUGAAAUAAAUGGAUGUAACUGUACCUUGGUACACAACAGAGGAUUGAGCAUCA: 0.247 ratio
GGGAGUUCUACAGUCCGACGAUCGGUGGGGUGGUCAUUGCCGUUUGAGCUCUGCUGAUUCAUGAGUCGCCUUCAAAACUCUCGUGUAGGGUUGACAAUGUGGGGGGGUGGGGGAUCCAGCUAUUUUUUUUAUUUUCAAGUCCACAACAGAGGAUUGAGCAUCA: 7.46 ratio
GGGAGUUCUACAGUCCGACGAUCAUAGAUGAAAUUGAUGUGGACCAGGAAGGAAUUGCAGAAAUGAUCCUGGAUGAAAAUGCUAUUGCUCAGGUCCCACGCCCUGGCACAUCUUUGAAGCUCCCUGGAACUAACCAAACAGGACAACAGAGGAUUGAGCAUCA: 0.293 ratio
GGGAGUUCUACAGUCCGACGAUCACCUCCCCCUCCCGCCUCACCCCACCCCCGCUUUUUGGAAAGUUUUUGGCGUUUCUUUUUUUUAGAAAUACAAAGUGGUUUUUACCACCCCCGCAAGGGUCUAUCGAAGGGCUUGACGGACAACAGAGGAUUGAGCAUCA: 1.92 ratio
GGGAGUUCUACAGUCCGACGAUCAAAGAGAAACUAAAGCAACUAAUAGAGAAGAGGAUUGGGCAAAGAGAUUUCAUAGAGAAACUAGGAUUUAUUAGCAAACAUGAGUUAUAUUCCAGAGCGUCUCAGAAAACCCCAGCCAACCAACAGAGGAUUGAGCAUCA: 3.25 ratio
